Experimental data pooled from the literature.
Each numbered part is a random draw from the data of one study; scales do not carry over between parts. Changes are numbered by the printed parent chain.

Set 1
Target: Cyclic AMP-responsive element-binding protein 1, full length (CREB1, Homo sapiens, UniProt P16220, residues 1-327)
Sequence of UniProt P16220 (whole entry, looked up): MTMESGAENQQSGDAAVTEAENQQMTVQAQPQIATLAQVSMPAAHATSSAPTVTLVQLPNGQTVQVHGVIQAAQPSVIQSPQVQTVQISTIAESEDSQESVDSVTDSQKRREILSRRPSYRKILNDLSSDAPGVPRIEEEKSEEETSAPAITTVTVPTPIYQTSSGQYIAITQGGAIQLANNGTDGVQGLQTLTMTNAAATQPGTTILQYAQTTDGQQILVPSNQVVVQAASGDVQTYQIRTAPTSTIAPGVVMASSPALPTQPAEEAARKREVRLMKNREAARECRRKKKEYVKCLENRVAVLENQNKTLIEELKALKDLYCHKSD
Method: protein-binding microarray
Molecule type: hairpin DNA
Sample: in vitro
Concentration: not given
Setting: whole hairpin DNA, median over replicate spots
Reference: not given
Reading: higher = stronger binding
All sequences stand within: GAGGCCG … CGGCCTCACACTC
Strand | median fluorescence [a.u.]
ACGATGTCGTGCCTCCTGGCACGACATCGT (5mC at 9 15 29 35) | 2800
ACGACGCGGTGCCTCCTGGCACCGCGTCGT (5mC at 9 29 30 35) | 3530
GATGACGTCAGCCTCCTGGCTGACGTCATC | 22900
GCTGACGCGAGCCTCCTGGCTCGCGTCAGC (5mC at 15 29) | 5370
ACGACGTCGAGCCTCCTGGCTCGACGTCGT (5mC at 9 15 29 35) | 3730
ACGACCTCGTGCCTCCTGGCACGAGGTCGT (5mC at 9 13 15 29 35) | 2480
CGGACGTCGTGCCTCCTGGCACGACGTCCG (5mC at 8 15 29 35) | 3560
GATGGCGTCAGCCTCCTGGCTGACGCCATC (5mC at 33) | 15000

Set 2
Target: RNA binding protein fox-1 homolog 2, RRM domain, GST-SBP tag (RBFOX2, Homo sapiens, UniProt O43251-10, residues 100-194)
Method: RNA Bind-n-Seq
Molecule type: RNA
Sample: in vitro
Concentration: 365 nM
Setting: natural RNA segment, single round, ends assumed
Reference: no-protein control
Reading: higher = stronger binding
All sequences stand within: GGGAGUUCUACAGUCCGACGAUC … UGGAAUUCUCGGGUGCCAA
Residues (chain): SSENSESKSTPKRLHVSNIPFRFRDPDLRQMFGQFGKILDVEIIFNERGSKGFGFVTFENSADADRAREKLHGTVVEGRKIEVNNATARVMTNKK
Strand | RBNS enrichment (R)
GAGUUCACUACCAUUUGUCAAGAAUCACCCUUUCCAAAUCCUCUGGGUUUUGACUUUUUGGCUUCCACUUCACCCAAAAUGUUAAAAUUUUUACUUAAUUCAUAGCCUUC | 0.594
UUCCUAGUUUUAUUUUAGCCUUUAUGAGUUAUUUUAUGAUGAAAGAAAAUCUAUAAGCCUAAGUUAUGGCCCAUAGGUUUUGUUAAGGGUUUUCAGAGUGAUUUUCAGGU | 0.568
CCAUCCCUUUCCCUGCUUCAGCGUCAGGCUGGGCCACCCACUUCAGCAGGCCGUGCGUGCGGACAGUCCUCAUUGCUGUGAGCGCAGUUACCACCUGGUGCCUCACUGUC | 0.472
ACCAAAAGGGGAUUUUUGAAAACGAGGAGUUGACCAAAAUAAUAUCUGAAGAUGAUUGCUUUUCCCUGCUGCCAGCUGAUCUGAAAUGUUUUGCUGGCACAUUAAUCAUA | 0.314
UGAGAUGUCACCAUUUGUCUUUCACAGUGACUUCCUUCCCUGAGCAAACAUUCAUGUGGCUUCGCUGGGGAGGAAAAAAAUAAGCACCUACUGUGUGCCAGGCACUAUGA | 0.334
UUUUAGGAUUUUAAAAUGGUUGAAUUAAUUUAAAAUUGUCUUAAUUCUACUCUUAAUACUUCACUGUGAUGUUAACUUGGAAGACCUGCUGAAGAUUAGUCUUUUAAUUU | 0.724
GCCUACUUUACCUGGGCGUCCUGACCCAGCCCAGGGCCCGGUAACCGCAAAGCCCCCAGUCUUCAUGCAGACCUUGAACCCUCCGUCACACCCGCACCAUGUACUCCCAG | 0.751
GAGUGGUGGGUAUUGAUUAGGCCAUCAUUUCAAGAGAGUAGAUGCUAAGUUGGAUUUCGUGCUGCUGUAAAUUGGAACUGUCGACUCUAAGUGCCUUUACUUAGGAAAAG | 0.815

Set 3
Target: TAR DNA-binding protein 43, full length, His tag (TARDBP, Homo sapiens, UniProt Q13148, residues 1-414)
Method: RNA Bind-n-Seq
Molecule type: RNA
Sample: in vitro
Concentration: 20 nM
Setting: 6-mer, flanks averaged, single round
With: 150 mM KCl
Reference: input library
Reading: higher = stronger binding
Strand | 6-mer enrichment (R)
GGCGCC | 1.46
GUCAAA | 0.725
CGAGCA | 0.847
GCAGAU | 0.862
GGAACA | 1.08
AUUGGG | 1.77
CGUUCA | 0.568
AGAGAA | 0.902

Further values, each from its own experiment
Starting sequence: viral docking peptide; KKVKRRLFETREL
Substitution | target | test | system | setting | how to read | quantity | result
KKVKRRAFETREL [L7A] | CCND1, cyclin fold, Cln2 fusion (human) | yeast growth competition, sequencing | yeast | weak parent motif | reference: not given, higher = stronger binding | normalised enrichment score | 0.179

Excerpt of the above (set 1):
Strand | median fluorescence [a.u.]
ACGACCTCGTGCCTCCTGGCACGAGGTCGT (5mC at 9 13 15 29 35) | 2480
